Measured values collected from several papers.
Protocols differ between the studies behind these lines. Numbers after ± are the reported error.

Structure (SMILES) | test | test system | setting | scale | quantity | result
CCn1ncc2c1-c1cnc(N)c(c1)O[C@H](C)c1cc(F)ccc1-c1nn(C)nc1C2 |  | female Balb/c nude mouse | 3 mg/kg twice daily, 6 h (tau/2), steady state |  | unbound brain concentration | 5.5 ± 2.1 nM
Cc1ccc(C(=O)N(CCCN)C(c2nc3snc(C)c3c(=O)n2Cc2ccccc2)C(C)C)cc1 (stereo not shown) | measured: Hypophosphatemia | human patients | intravenous, 16 mg/day, CTCAE grade ≥3 |  | patients with adverse events | 11%
N#CCC(=O)Nc1ccc([C@H]2[C@@H](F)[C@@H](F)C[C@@H](F)[C@H]2F)cc1 | liver microsome stability | human liver microsomes | 1 µM, without NADPH |  | hepatic clearance | 3.9 mL/min/kg
CCCCC[C@H](O)CC[C@@H]1[C@H]2Cc3cccc(OCC(=O)O)c3C[C@H]2C[C@H]1O | LC-MS/MS | Japanese IPAH/HPAH patients, plasma | inhaled, 54 µg |  | geometric mean AUC(0-inf) | 0.96 ng·h/mL
CCc1cc(C(=O)NC)c2nccc(N3CCc4c(cc(Cn5ccnc5)cc4-c4cn(C)nc4C(F)(F)F)C3=O)c2c1 |  | Sprague Dawley rats | oral, 100 mg/kg twice daily, 7 days | baseline: vehicle | blood Eos change | -76.5%
O=C(O)CCC(=O)O.[2H]C([2H])([2H])Oc1cc(C)c2[nH]ccc2c1CN1CC[C@@H](C2CC2)C[C@H]1c1ccc(C(=O)O)cc1 | multiple ascending dose | healthy Chinese subjects | 100 mg twice daily |  | subjects with elevated cholesterol TEAE | 0%
Cc1cc(C(=O)NC(C)(C)COc2cccc3c2C(N)=NS(=O)(=O)N3)cc(C)n1 | LC-MS | human liver microsomes | 10 µM, 60 min, pH 7.4, with: NADPH | baseline: time 0 | remaining parent compound | 98%
CNC(=O)c1ccc(-c2cnc3ncc(Cc4ccc5ncccc5c4)n3n2)cc1F |  | human, healthy subjects, plasma | oral, 200 mg, covariate-adjusted geometric mean |  | AUCinf | 6670 ng·h/mL
C=CC(=O)Nc1cc(Nc2nccc(-c3cn(C4CC4)c4ccccc34)n2)c(OC)cc1N(C)CCN(C)C |  | BALB/c nude mouse, LU0387 xenograft, blood | oral, 40 mg/kg |  | LYMPH percentage | 54.7 ± 5.62%
COc1ccc2[nH]c([S+]([O-])Cc3ncc(C)c(OC)c3C)nc2c1 (stereo not shown) |  | healthy Chinese volunteers CYP2C19 NM, plasma | oral, 20 mg single dose, enteric-coated capsules |  | AUC(0-t) | 469 ± 530 ng·h/mL
O=C(O)CCCOc1ccc([18F])cc1-c1cc(-c2ccccc2C(F)(F)F)n(-c2ccccc2)n1 | 18F biodistribution | male ddY mouse, whole blood | intravenous, 2.1 MBq, 1 min |  | blood radioactivity | 0.32 ± 0.12 SUV
O=C(N[C@H](Cc1c[nH]c2ccccc12)C(=O)Nc1ccncc1)c1ccc(N2CCN(c3ccc(F)c(F)c3)CC2)cc1F |  | Swiss Webster mouse, female, muscle | oral, 50 mg/kg, 2 h, 20% HPβCD vehicle |  | concentration | 60 nM
NC1(C(=O)N[C@@H](CCO)c2ccc(Cl)cc2)CCN(c2nc[nH]c3nccc2-3)CC1 |  | metastatic CRPC patients | 480 mg b.i.d., grade 3 to 4, treatment-related, with: enzalutamide 160 mg daily |  | incidence of Arthralgia | 0%
O=C(COc1ccc(Cl)cc1)NC12CC(c3nnc([C@H]4C[C@@H](OC(F)(F)F)C4)o3)(C1)C2 |  | humans | concentration not given |  | TEAE leading to discontinuation | 7.1%
CN1C(=O)[C@@H](NC(=O)c2nnc(Cc3ccccc3)[nH]2)COc2cccnc21 |  | healthy human, fasted, plasma | oral, 400 mg single dose, geometric mean |  | Vz/F | 90.5 L
CCC(=O)N(CCC(c1ccc2c(c1)OCO2)c1ccccc1OC)Cc1ccccc1 (stereo not shown) |  | mouse, blood | i.p., 60 mg/kg twice daily, 2 weeks |  | BUN/creatinine ratio | 128
C[C@@H]1CCO[C@H]2Cn3cc(C(=O)NCc4ccc(F)cc4F)c(=O)c(O)c3C(=O)N12 |  | human paediatric patients, weight 6 to under sample A kg, plasma | oral, 8 mg granules, 24 h, steady state, geometric mean, population PK post-hoc, N 2 |  | trough concentration (C24) | 452 ng/mL
Cc1nc2ccc(F)cc2n1-c1nc(N)c(F)c(Nc2ccc(C(F)(F)F)cc2)n1 |  | human patients, plasma | oral, 300 mg twice weekly, cycles 1 and 2 pooled |  | dose-normalized Cmax | 5.25 ng/mL/mg
O=C(Nc1ccc(OC(F)(F)Cl)cc1)c1cnc(N2CC[C@@H](O)C2)c(-c2ccn[nH]2)c1 | per treatment cycle, measured: lipase increase | human patients | oral, dose not given, 28 day cycle |  | grade ≥3 event rate | 0.3%
N#Cc1ccc2c(c1)[C@H]1CCCN(C(=O)c3ccc4[nH]cnc4c3)[C@H]1C2 |  | human, male | 80 mg, day 7 |  | androstenedione level | 9.7 nmol/L
C[C@@H](Nc1cc(F)cc(F)c1)c1cc(C(=O)N(C)C)cc2c(=O)cc(N3CCOCC3)oc12 | measured: Dehydration | advanced solid tumour patients | oral, dose not given, dose finding |  | related serious adverse events | 0%
Cl.[2H]C([2H])([2H])CC(=O)c1cnc(NC(=O)C2CC2)cc1Nc1cccc(-c2ncn(C([2H])([2H])[2H])n2)c1OC | geometric mean | human | oral, 17.5 mg single dose, fasted, liquid |  | elimination rate constant | 2.44e-05 s⁻¹
C#Cc1ccc(C(F)(F)F)cc1C=O | chemical stability, HPLC-MS | borate buffered saline | pH 10.2, no N-acetyl-lysine |  | degradation rate constant | 0 h⁻¹

Structure (SMILES) | test | test system | setting | scale | quantity | result
O=C(NCC1CCOCC1)c1ccc([C@H]2[C@@H](F)[C@@H](F)C[C@@H](F)[C@H]2F)cc1 | hepatocyte stability | cryopreserved human hepatocytes | 1 µM |  | hepatic clearance | 6.2 mL/min/kg
CSCC[C@H](NC(=O)[C@H](CCCCN)NC(=O)[C@H](CCCNC(=N)N)NC(=O)[C@H](CO)NC(=O)[C@H](Cc1c[nH]c2ccccc12)NC(=O)[C@H](CCCNC(=N)N)NC(=O)[C@H](CC(C)C)NC(=O)[C@@H](N)CCSC)C(=O)N1CCC[C@H]1C(=O)N[C@@H](CS)C(=O)N[C@H](C(=O)N[C@@H](CO)C(N)=O)C(C)C | 12G5 competition, SUP-T1 cells | human plasma | 20 µM, 2 h, 37 °C |  | remaining activity | 4 ± 0.5%
C=CCn1c(=O)c2cnc(Nc3ccc(N4CCN(C)CC4)cc3)nc2n1-c1cccc(C(C)(C)O)n1 |  | human patients | oral, 150 mg twice daily, monotherapy, -5 day lead-in |  | AUC(0-10 h) | 5.22 µM·h
CC(=O)O[C@H]1C(=O)[C@@]2(C)[C@H]([C@H](OC(=O)c3ccccc3)[C@]3(O)C[C@H](OC(=O)[C@H](O)[C@@H](NC(=O)c4ccccc4)c4ccccc4)C(C)=C1C3(C)C)[C@]1(OC(C)=O)CO[C@@H]1C[C@@H]2O | noncompartmental analysis | human cancer patients, plasma | intravenous infusion, 80 mg/m^2, cycle 1 day 1, with: daily oral co-medication |  | volume of distribution | 203 L
CCO |  | healthy Chinese men | 0.5 g/kg, supine or semi-supine, with: placebo | baseline: baseline | maximal decrease in systolic BP | -11.7 ± 8.52 mmHg
Cc1cc(C)c(CNC(=O)c2cc(Cl)c3c(c2C)O[C@@](C)([C@H]2CC[C@H](N(C)C)CC2)O3)c(=O)[nH]1 | measured: Sepsis | human patients | oral, 200 mg once daily, 1 day onset day 14 |  | patients with grade ≥3 TEAE | 0%
CCO[C@H]1CCN(Cc2c(OC)cc(C)c3[nH]ccc23)[C@H](c2ccc(C(=O)O)cc2)C1 |  | human moderate hepatic impairment, plasma | oral, 200 mg single dose, median |  | unbound AUClast | 5050 ng·h/mL
C[C@]12CC[C@@H]3c4ccc(O)cc4CC[C@H]3[C@@H]1CCC2=O |  | whole cow milk | 2000 nM nominal |  | dose fraction in skim milk | 23.3%
COCCN(C)C(=O)c1ccc([C@H]2[C@@H](F)[C@@H](F)C[C@@H](F)[C@H]2F)cc1 | liver microsome stability | dog liver microsomes | 1 µM |  | hepatic clearance | 19 mL/min/kg
C#C[C@]1(O)CC[C@H]2[C@@H]3CCC4=CC(=O)CC[C@@H]4[C@H]3CC[C@@]21C |  | HIV-infected women on protease inhibitor, serum | oral, 0.35 mg, steady state |  | Cmin geometric mean | 0.17 ng/mL
C[C@@H]1COCCN1c1cc(C2([S@](C)(=N)=O)CC2)nc(-c2cc[nH]c3nccc2-3)n1 |  | female BALB/c mice | dose not given, 48 h, with: total body irradiation 6 Gy | baseline: irradiation alone | white blood cell count | no effect
CC(C)NCCCC[C@@H]1NC(=O)[C@H](Cc2ccc(O)cc2)NC(=O)[C@H](Cc2ccccc2)NC(=O)CC[C@H](C(=O)N[C@@H](CCCCNC(C)C)C(=O)N[C@@H](CCCCNC(=O)[C@H](CCC(=O)O)NC(=O)[C@H](CCC(=O)O)NC(=O)[C@H](CCC(=O)O)NC(=O)CN2CCN(CC(=O)O)CCN(CC(=O)O)CCN(CC(=O)O)CC2)C(N)=O)NC(=O)CNC(=O)[C@H](Cc2ccc3ccccc3c2)NC(=O)[C@@H](CCCNC(=N)N)NC1=O [gallium-68 labelled] |  | mouse with PC-3 xenograft, muscle | intravenous, 1 h |  | tissue uptake | 0.1 %ID/g
N#Cc1ccc2c(c1)[C@H]1CCCN(C(=O)c3ccc4[nH]cnc4c3)[C@H]1C2 |  | human, plasma | 80 mg once daily, day 7 |  | pre-dose plasma concentration | 2080 nmol/L
COc1cc(C(=O)N2CCC3(CC2)CC(=O)c2c(cnn2C(C)C)C3)cc(-c2ccc(C(=O)O)cc2)n1 | measured: HDL cholesterol | human, fasting serum | 10 mg every 12 h, day 13, adjusted geometric mean | baseline: baseline | percentage change from baseline | -3.1%
O=C(Nc1nc2cccc(-c3ccc(CN4CCS(=O)(=O)CC4)cc3)n2n1)C1CC1 | measured: blood amylase increased | rheumatoid arthritis patients | oral, 300 mg once daily, 4 weeks, any relatedness |  | treatment-emergent adverse events | 0%
COc1ncc(-c2nc3c(n2C(C)C)[C@H](c2ccc(Cl)cc2)N(c2cc(Cl)cn(C)c2=O)C3=O)c(OC)n1 | LC-MS/MS, noncompartmental | human, plasma | oral, 2 mg, C1D8, low-dose, geometric mean |  | Cmax | 18.8 ng/mL
Cc1ccc(Sc2ccccc2N2CCNCC2)c(C)c1 | measured: Nausea | healthy adult men | oral, 40 mg single dose, 10 day |  | participants with TEAE | 0%
Cc1ccc([C@@H]2O[C@H](CO)[C@@H](O)[C@H](O)[C@H]2O)cc1Cc1ccc(-c2ccc(F)cc2)s1 |  | Japanese type 2 diabetes patients | 100 mg, day 15, 24 h urine collection | baseline: baseline | urinary chloride excretion change | 1.33 mEq
O=C(NCCc1cccnc1)c1ccc(C2CCCCC2)cc1 | liver microsome stability | cynomolgus liver microsomes | 1 µM |  | hepatic clearance | 41 mL/min/kg
COc1ccnc(C(=O)O)c1O | soil adsorption | soil | pH 6.9, organic carbon 0.8 % |  | KFoc | 26000 mL/g
COc1cccc(-c2n[nH]c(SCc3ccccn3)n2)c1OC |  | Sprague-Dawley rats, both sexes | oral dietary, 10 mg/kg/day, day 90, 6 h |  | plasma concentration | 846 ng/mL
CCOc1c([C@H](C)n2nc(C)c3c(N)ncnc32)cc(Cl)c(F)c1[C@@H]1CNC(=O)C1 |  | patients, monotherapy | oral, 45 mg once daily, cycle 1 day 15 |  | Cmin | 864 ± 690 nM
N[C@@H](Cc1ccc(O)c(O)c1)C(=O)O | ultrafiltration | normal rat serum | 37 °C |  | serum protein binding | 43 ± 22%

Repeated from above:
Structure (SMILES) | test | test system | setting | scale | quantity | result
Cl.[2H]C([2H])([2H])CC(=O)c1cnc(NC(=O)C2CC2)cc1Nc1cccc(-c2ncn(C([2H])([2H])[2H])n2)c1OC | geometric mean | human | oral, 17.5 mg single dose, fasted, liquid |  | elimination rate constant | 2.44e-05 s⁻¹
CC(C)NCCCC[C@@H]1NC(=O)[C@H](Cc2ccc(O)cc2)NC(=O)[C@H](Cc2ccccc2)NC(=O)CC[C@H](C(=O)N[C@@H](CCCCNC(C)C)C(=O)N[C@@H](CCCCNC(=O)[C@H](CCC(=O)O)NC(=O)[C@H](CCC(=O)O)NC(=O)[C@H](CCC(=O)O)NC(=O)CN2CCN(CC(=O)O)CCN(CC(=O)O)CCN(CC(=O)O)CC2)C(N)=O)NC(=O)CNC(=O)[C@H](Cc2ccc3ccccc3c2)NC(=O)[C@@H](CCCNC(=N)N)NC1=O [gallium-68 labelled] |  | mouse with PC-3 xenograft, muscle | intravenous, 1 h |  | tissue uptake | 0.1 %ID/g
